Measurements pooled from the literature.
Numbered parts are unrelated; each lists some results of a single study. Positions count from the first letter of the parent shown.

Study 1 — method: protein-binding microarray; form: double-stranded DNA, one strand shown; matrix: in vitro; tested at: 2200 nM top; setting: 60-bp whole probe; with: salmon DNA 0.4 mg/ml; reference: random background probes; reading: higher = stronger binding; measurement: fitted relative affinity; all sequences stand within: GCCTAGCAC … GTCTTGATTCGCTTGACGCTGCTG
Target: Interferon regulatory factor 7, full length, phosphomimetic (IRF7, Homo sapiens, UniProt Q92985, residues 1-503, S471D/S472D/S475D/S476D/S477D/S483D/S484D/S487D)
Chain of UniProt Q92985 (whole entry, unmodified, looked up): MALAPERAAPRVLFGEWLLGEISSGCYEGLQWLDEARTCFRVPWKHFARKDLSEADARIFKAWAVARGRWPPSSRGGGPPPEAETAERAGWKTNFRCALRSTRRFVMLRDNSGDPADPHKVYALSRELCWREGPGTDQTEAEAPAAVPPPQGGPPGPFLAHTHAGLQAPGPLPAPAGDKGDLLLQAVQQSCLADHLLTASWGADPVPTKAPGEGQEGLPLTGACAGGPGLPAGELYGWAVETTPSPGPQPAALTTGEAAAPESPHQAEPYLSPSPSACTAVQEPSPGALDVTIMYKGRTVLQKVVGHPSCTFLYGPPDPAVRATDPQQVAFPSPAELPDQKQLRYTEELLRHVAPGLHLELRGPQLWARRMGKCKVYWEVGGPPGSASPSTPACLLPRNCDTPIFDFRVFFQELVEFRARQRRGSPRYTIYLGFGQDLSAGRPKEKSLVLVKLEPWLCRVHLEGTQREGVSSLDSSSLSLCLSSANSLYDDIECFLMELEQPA
Sequence = TTAGGTCTCCTTTTCATTTAGTGCTAG; result = 1.75 z-score
Sequence = GACGGAATGCTACTGCTGACGTGCTAG; result = -0.198 z-score
Sequence = TTAGGACTTCTTATCCTTTAGTGCTAG; result = 0.398 z-score
Sequence = TTATGTATCGACTTTCGGTTAGTGCTA; result = 7.05 z-score
Sequence = TTAGGTATCCTTCTCATTTAGTGCTAG; result = 0.801 z-score
Sequence = GACGATTTCGTGACTGGAGACGTGCTA; result = 0.762 z-score
Sequence = TTACAACTGAGTATCGATTAGTGCTAG; result = 0.29 z-score
Sequence = TCATCTCTGTTTTTGCTACTGTGCTAG; result = 2.2 z-score
Sequence = TCAAGTTTATTTATTTTACTGTGCTAG; result = 0.174 z-score
Sequence = TTAGGTTTCGTTTCCCTTTAGTGCTAG; result = 11.5 z-score
Sequence = GACCGTATCCTTCTCCTGACGTGCTAG; result = 1.69 z-score
Sequence = GACGGACTGGGTCTTGGGACGTGCTAG; result = -0.796 z-score
Sequence = TTAGGTATCGGACTGAGTTAGTGCTAG; result = 0.156 z-score
Sequence = GACGACCTGGGGTATCGAGACGTGCTA; result = -0.167 z-score
Sequence = TTAGTTTTCGGACTGGGTTAGTGCTAG; result = 3.3 z-score
Sequence = TCACCCCTCTCATTCCAACTGTGCTAG; result = 1.73 z-score
Sequence = GACGGACTGGGACTGCGGACGTGCTAG; result = -0.946 z-score
Sequence = TCAATCGTAAGCAAAAAACTGTGCTAG; result = -0.402 z-score
Sequence = GACTGTTTCCTTCTCCTGACGTGCTAG; result = 2.93 z-score
Sequence = GACGGTTTCGGTTCCGGGAAGTGCTAG; result = 11.7 z-score
Sequence = GACGATTTCAGTTCCGATACGTGCTAG; result = 2.39 z-score
Sequence = GACGGTTTCTGGACTGGGGACGTGCTA; result = 1.11 z-score

Study 2 — target: CCNE2, cyclin fold, Cln2 fusion (human); method: yeast growth competition, sequencing; matrix: yeast; setting: weak parent motif; reference: not given; reading: higher = stronger binding; measurement: normalised enrichment score
Parent: SAMHD1 docking peptide (human); ASKSRVQLFKDDP; partner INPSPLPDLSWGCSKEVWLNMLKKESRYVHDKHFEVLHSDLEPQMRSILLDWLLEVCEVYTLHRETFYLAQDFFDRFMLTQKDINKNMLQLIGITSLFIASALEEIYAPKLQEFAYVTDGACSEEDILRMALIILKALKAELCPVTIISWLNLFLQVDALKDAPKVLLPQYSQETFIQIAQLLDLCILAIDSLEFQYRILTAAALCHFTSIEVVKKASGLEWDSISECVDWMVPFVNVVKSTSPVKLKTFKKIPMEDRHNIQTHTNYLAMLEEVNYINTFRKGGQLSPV
Variant = AHKSRVQLFKDDP [S2H]; result = 0.305
Variant = ASKSRKQLFKDDP [V6K]; result = 0.448
Variant = ASASRVQLFKDDP [K3A]; result = 0.243
Variant = ASKSRVWLFKDDP [Q7W]; result = 0.435
Variant = ASKSRVQLRKDDP [F9R]; result = 0.429
Variant = ASKSRVQLFDDDP [K10D]; result = -0.233
Variant = ASKSRVQQFKDDP [L8Q]; result = -0.195
Variant = ASKSRVQLFYDDP [K10Y]; result = -0.318
Variant = ASKSRMQLFKDDP [V6M]; result = 0.0731
Variant = ASKSRDQLFKDDP [V6D]; result = -0.389
Variant = ASKSRVHLFKDDP [Q7H]; result = 0.564
Variant = ASKSAVQLFKDDP [R5A]; result = -0.00718
Variant = AQKSRVQLFKDDP [S2Q]; result = 0.00255

Study 3 — method: protein-binding microarray; form: hairpin DNA; matrix: in vitro; tested at: not given; reference: not given; reading: higher = stronger binding; measurement: median fluorescence
Target: Runt-related transcription factor 3, Runt domain (RUNX3, Homo sapiens, UniProt Q13761, residues 53-186)
Chain of UniProt Q13761 (53-186, looked up): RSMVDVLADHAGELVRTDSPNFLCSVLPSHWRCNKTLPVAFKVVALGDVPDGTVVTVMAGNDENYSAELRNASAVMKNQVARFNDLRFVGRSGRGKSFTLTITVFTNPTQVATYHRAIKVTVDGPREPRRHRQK
Setting: whole hairpin DNA, median over replicate spots
Sequence = GAGGCCTTTTGCGGTTGGCCTCCTGGCCAACCGCAAAAGGCCTCACACTC; result = 8760 a.u.
Sequence = GAGGCCTGTTGTCGTTGGCCTCCTGGCCAACGACAACAGGCCTCACACTC (5mC at 13); result = 4540 a.u.
Sequence = GAGGCCCAACCACAACAGCCTCCTGGCTGTTGTGGTTGGGCCTCACACTC; result = 5720 a.u.
Sequence = CTCAGTTCGGTGGGCTGGACTCCTGTCCAGCCCACCGAACTGAGACACTC; result = 4420 a.u.
Sequence = CTCAGTTTTGTGGGCTGGACTCCTGTCCAGCCCACAAAACTGAGACACTC; result = 4080 a.u.
Sequence = GAGGCCTCTTGTGGTTGGCCTCCTGGCCAACCACAAGAGGCCTCACACTC; result = 5250 a.u.
Sequence = GAGGCCCACCCGCAACAGCCTCCTGGCTGTTGCGGGTGGGCCTCACACTC; result = 5910 a.u.
Sequence = GAGGCCCACCCGCAACAGCCTCCTGGCTGTTGCGGGTGGGCCTCACACTC (5mC at 9); result = 5490 a.u.
Sequence = GAGGCCCAACCGCAAGAGCCTCCTGGCTCTTGCGGTTGGGCCTCACACTC (5mC at 29); result = 9060 a.u.
Sequence = GAGGCCTGTTGTGGTTGGCCTCCTGGCCAACCACAACAGGCCTCACACTC; result = 5340 a.u.
Sequence = GAGGCCCAACCGCCACAGCCTCCTGGCTGTGGCGGTTGGGCCTCACACTC; result = 6300 a.u.

Study 4 — method: DHFR PCA, deep sequencing; matrix: yeast; with: (+)-ABA 58 µM; reference: wild-type fitted maximum; reading: higher = stronger binding; measurement: relative binding score
Target: ABI1, truncated, D143A, DHFR fusion (Arabidopsis thaliana)
Setting: methotrexate growth selection, single substitutions
Parent: PYL1, truncated, DHFR fusion (Arabidopsis thaliana); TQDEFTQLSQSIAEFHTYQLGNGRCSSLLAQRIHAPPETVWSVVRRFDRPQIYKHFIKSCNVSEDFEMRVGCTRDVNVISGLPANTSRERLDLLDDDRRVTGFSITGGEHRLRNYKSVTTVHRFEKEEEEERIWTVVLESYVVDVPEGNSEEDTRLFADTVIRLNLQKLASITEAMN
Variant = S140N; result = -1.46%
Variant = V44Y; result = -14%
Variant = W41M; result = -17.9%
Variant = L138S; result = 12.3%
Variant = D92R; result = 22.5%
Variant = L8W; result = 85.3%
Variant = R155A; result = 52.6%
Variant = D153E; result = 88.1%
Variant = D95L; result = 46.7%
Variant = K54H; result = -1.77%
Variant = N85S; result = 93.5%
Variant = V70A; result = 77.4%
Variant = Y115H; result = 13.6%
Variant = K54N; result = 12.2%
Variant = Q7T; result = 80.1%

Some of these lines once more (study 2):
Variant = ASKSRVQLRKDDP [F9R]; result = 0.429
Variant = ASKSRVQLFDDDP [K10D]; result = -0.233
Variant = ASKSRVQQFKDDP [L8Q]; result = -0.195
Variant = ASKSRVQLFYDDP [K10Y]; result = -0.318
Variant = ASKSRMQLFKDDP [V6M]; result = 0.0731
Variant = ASKSRDQLFKDDP [V6D]; result = -0.389
